Values quoted from earlier work, collected from citations in different studies.
Lines come from different studies, so protocols differ. Numbers after ± are the reported error.

SMILES	organism	read-out	technique	cell line	strain	EC50
Cc1nc(N(C)C(=O)Nc2ccc(-c3ccccc3)cc2)sc1S(=O)(=O)NC1CC1	herpes simplex virus 2	viral replication	–	–	–	100 nM
Cc1cc(C#N)cc(C)c1Oc1ccnc(NC2CCN(CC(=O)N3CCOCC3)CC2)n1	HIV-1	viral replication	–	–	wild type	141 nM
COc1ccc(NC(=O)N2CCCCN3[C@H](CN(C)C)[C@H](c4ccc(C#Cc5ccccc5)cc4)[C@@H]3C2)cc1	Toxoplasma gondii	parasite growth	–	–	RH-FLuc	53 nM
Cc1cc(/C=C/C#N)cc(C)c1-n1cnc2cnc(Nc3ccc(C#N)cc3)nc21	HIV-1 wild type	viral replication	single-round infection	–	–	0.5 ± 0.1 nM
Cc1cn(C2C=CC(COP(=O)(O)OP(=O)(O)OP(=O)(O)O)O2)c(=O)[nH]c1=O (centres unmarked)	HIV-2	viral replication	–	CEM/0	ROD	400 ± 260 nM
CCOP(=O)(CCCn1cc(Cn2c(=O)n(C(=O)c3ccccc3)c(=O)c3ccccc32)nn1)OCC	human alphaherpesvirus 2	viral replication	–	–	–	17000 nM
CC(C)c1ccc(O)c(=O)c(O)c1	hepatitis B virus	viral replication	–	–	–	1000 nM
COC(=O)NC(C(=O)NN(Cc1ccc(-c2ccccc2)cc1)CC(O)(Cc1ccccc1)C(=O)NC1c2ccccc2CC1O)C(C)(C)C (centres unmarked)	HIV-1	viral replication	–	MT-4	–	700 nM
O=C(CCC(CCC(=O)N[C@@H](Cc1ccc(O)cc1)C(=O)O)(CCC(=O)N[C@@H](Cc1ccc(O)cc1)C(=O)O)NC(=O)CCOCC(COCCC(=O)NC(CCC(=O)N[C@@H](Cc1ccc(O)cc1)C(=O)O)(CCC(=O)N[C@@H](Cc1ccc(O)cc1)C(=O)O)CCC(=O)N[C@@H](Cc1ccc(O)cc1)C(=O)O)(COCCC(=O)NC(CCC(=O)N[C@@H](Cc1ccc(O)cc1)C(=O)O)(CCC(=O)N[C@@H](Cc1ccc(O)cc1)C(=O)O)CCC(=O)N[C@@H](Cc1ccc(O)cc1)C(=O)O)COCCC(=O)NC(CCC(=O)N[C@@H](Cc1ccc(O)cc1)C(=O)O)(CCC(=O)N[C@@H](Cc1ccc(O)cc1)C(=O)O)CCC(=O)N[C@@H](Cc1ccc(O)cc1)C(=O)O)N[C@@H](Cc1ccc(O)cc1)C(=O)O	HIV-2	viral cytopathicity	–	MT-4	ROD	20000 ± 15000 nM
Cc1ccc(F)cc1-c1ccc(CC(=O)N(C)c2nc(C)c(S(N)(=O)=O)s2)cc1	herpes simplex virus 1	viral replication	–	–	–	100 nM
COC(=O)NC(C(=O)NN(Cc1ccc(-c2cc3ccccc3s2)cc1)CC(O)(Cc1ccccc1)C(=O)NC1c2ccccc2CC1O)C(C)(C)C (centres unmarked)	HIV-1	viral replication	–	MT-4	–	> 10000 nM
Cc1nc(N(C)C(=O)Cc2ccc(-c3ccccc3)cc2)sc1S(N)(=O)=O	herpes simplex virus 2	viral replication	–	–	–	5 nM
Oc1ccccc1/C=N/c1sc2c(c1-c1nc3ccccc3s1)CCCC2	human adenovirus 7	antiviral activity	–	–	–	10.8 µg/mL
Cc1cc(N2CC[C@@](C#N)(C3(C)CC3)C2=O)cc(C(=O)NCc2cc(F)cc(-c3cnn(C)c3)c2)n1	Toxoplasma gondii	–	–	–	wild type	27 nM
CN(C(=O)Nc1ccc(N2CCOCC2)cc1)c1nc(Cl)c(S(=O)(=O)N(C)C)s1	herpes simplex virus 2	viral replication	–	–	–	700 nM
O=C(Nc1ccc2sc(-c3ccc(F)c(F)c3)nc2c1)N1CC[C@H](F)C1	Trypanosoma brucei	–	–	–	–	30 nM
Cc1nc(N(C)C(=O)Cc2ccc(-c3ccccc3)cc2)sc1S(=O)(=O)NCCO	herpes simplex virus 2	viral replication	–	–	–	5 nM
COCCCNC(=O)c1ccc(Cn2c(=O)c3ccccc3n(Cc3ccc(C)cc3)c2=O)cc1	respiratory syncytial virus	cytopathic effect	–	–	–	2140 nM
CNS(=O)(=O)c1sc(N(C)C(=O)Nc2ccc(-c3ccccc3)cc2)nc1C	herpes simplex virus 1	viral replication	–	–	–	1 nM
Cc1cc(O)c(=O)c(O)cc1C(=O)c1ccc2ccc3cccc4ccc1c2c34	herpes simplex virus	viral replication	–	–	–	60 nM

A few entries again:
SMILES	organism	read-out	technique	cell line	strain	EC50
Oc1ccccc1/C=N/c1sc2c(c1-c1nc3ccccc3s1)CCCC2	human adenovirus 7	antiviral activity	–	–	–	10.8 µg/mL
Cc1cc(N2CC[C@@](C#N)(C3(C)CC3)C2=O)cc(C(=O)NCc2cc(F)cc(-c3cnn(C)c3)c2)n1	Toxoplasma gondii	–	–	–	wild type	27 nM
CN(C(=O)Nc1ccc(N2CCOCC2)cc1)c1nc(Cl)c(S(=O)(=O)N(C)C)s1	herpes simplex virus 2	viral replication	–	–	–	700 nM
